{"data": "Published values pooled from the literature", "note": "Parts stem from different laboratories: compare values within a part only."}
{"data": "Set 1", "target": "Interferon regulatory factor 5, full length, phosphomimetic (IRF5, Homo sapiens, UniProt Q13568-2, residues 1-514, K96S/S451D/S453D/S456D/S462D)", "technique": "protein-binding microarray", "form": "double-stranded DNA, one strand shown", "sample": "in vitro", "concentration": "250 nM", "notes": "60-bp whole probe", "added": "salmon DNA 0.4 mg/ml", "reference": "random background probes", "direction": "higher = stronger binding", "all sequences stand within": "GCCTAGCAC … GTCTTGATTCGCTTGACGCTGCTG"}
{"Oligonucleotide": "TCACCTCTCAACCATCCTACTGTGCTA", "log fluorescence": "0.0227 z-score"}
{"Oligonucleotide": "TTAGGTCTCGGTTTCGGTTCGTGCTAG", "log fluorescence": "7.9 z-score"}
{"Oligonucleotide": "TCTGTTTTTGCTTTCTTTTTGTGCTAG", "log fluorescence": "2.87 z-score"}
{"Oligonucleotide": "TTAGGTTTCCTTCGCCTTTAGTGCTAG", "log fluorescence": "0.64 z-score"}
{"Oligonucleotide": "TTACAATTTGCTTTAGTCATGTGCTAG", "log fluorescence": "0.675 z-score"}
{"Oligonucleotide": "GACGGTTTCGGGGCTGGGGACGTGCTA", "log fluorescence": "3.97 z-score"}
{"Oligonucleotide": "GACGGACTGCTCTTCCTGACGTGCTAG", "log fluorescence": "-0.523 z-score"}
{"Oligonucleotide": "TCAATTTTTTTTCACTAACTGTGCTAG", "log fluorescence": "1.8 z-score"}
{"Oligonucleotide": "TTAGGTTTAGGGACTGGGTTAGTGCTA", "log fluorescence": "0.0664 z-score"}
{"data": "Set 2", "target": "Protein max, full length (MAX, Homo sapiens, UniProt P61244-2, residues 1-151)", "technique": "protein-binding microarray", "form": "double-stranded DNA, one strand shown", "sample": "in vitro", "concentration": "not given", "notes": "k-mer, scored over probes, only values ≥0.25", "direction": "higher = stronger binding"}
{"Oligonucleotide": "ACATGAGT", "E-score": 0.341}
{"Oligonucleotide": "CACCTGGC", "E-score": 0.382}
{"Oligonucleotide": "ATGCGGCC", "E-score": 0.329}
{"Oligonucleotide": "ACCGTGTG", "E-score": 0.295}
{"Oligonucleotide": "ACACGGTG", "E-score": 0.327}
{"Oligonucleotide": "CTCCATGC", "E-score": 0.371}
{"Oligonucleotide": "ATACAGCA", "E-score": 0.271}
{"Oligonucleotide": "CACCCATG", "E-score": 0.322}
{"Oligonucleotide": "GCTGTCAC", "E-score": 0.28}
{"data": "Set 3", "target": "Histone acetyltransferase KAT6A, winged helix 2, GST fusion (KAT6A, Homo sapiens, UniProt Q92794, residues 85-181)", "technique": "protein binding microarray", "form": "double-stranded DNA, one strand shown", "sample": "in vitro", "concentration": "not given", "notes": "8-mer, flanks averaged, mean of 2 arrays, mostly near background", "reference": "not given", "direction": "higher = stronger binding", "Residues (chain)": "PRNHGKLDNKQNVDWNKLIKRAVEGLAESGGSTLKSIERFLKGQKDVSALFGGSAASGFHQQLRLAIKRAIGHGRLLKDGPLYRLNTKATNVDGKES"}
{"Oligonucleotide": "CCCCTCCA", "E-score": 0.0789}
{"Oligonucleotide": "CAGCAATG", "E-score": -0.0168}
{"Oligonucleotide": "AAAGCCGC", "E-score": 0.0976}
{"Oligonucleotide": "ACTAACCC", "E-score": -0.119}
{"Oligonucleotide": "ACTTCGCG", "E-score": 0.0973}
{"Oligonucleotide": "GAGAGGGA", "E-score": -0.125}
{"Oligonucleotide": "CGCGTAGC", "E-score": 0.167}
{"Oligonucleotide": "GACACCCC", "E-score": -0.2}
{"Oligonucleotide": "GACTTGCA", "E-score": -0.077}
{"Oligonucleotide": "AATCGGAC", "E-score": -0.0313}
{"Oligonucleotide": "ACGACGGC", "E-score": 0.0323}
{"data": "Single results of other studies"}
{"Substance": "PhoQ, residues 284 288 289 292 302 303 TYGVAM", "target": "PhoP, residues 12 14 15 18 19 STWGI (Escherichia coli, UniProt P23836)", "test": "Sort-seq, item: YFP reporter", "test system": "E. coli", "conditions": "PhoQ-PhoP variant library, added: 10 µM Mg2+", "scale": "reference: high Mg2+ state, higher = stronger signaling", "measurement": "fold induction", "result": 6.32}
